Experimental data pooled from the literature.
Numbered parts are unrelated; each lists some results of a single study. Positions count from the first letter of the parent shown.
Sequence of UniProt Q9Y2K2 (whole entry, looked up): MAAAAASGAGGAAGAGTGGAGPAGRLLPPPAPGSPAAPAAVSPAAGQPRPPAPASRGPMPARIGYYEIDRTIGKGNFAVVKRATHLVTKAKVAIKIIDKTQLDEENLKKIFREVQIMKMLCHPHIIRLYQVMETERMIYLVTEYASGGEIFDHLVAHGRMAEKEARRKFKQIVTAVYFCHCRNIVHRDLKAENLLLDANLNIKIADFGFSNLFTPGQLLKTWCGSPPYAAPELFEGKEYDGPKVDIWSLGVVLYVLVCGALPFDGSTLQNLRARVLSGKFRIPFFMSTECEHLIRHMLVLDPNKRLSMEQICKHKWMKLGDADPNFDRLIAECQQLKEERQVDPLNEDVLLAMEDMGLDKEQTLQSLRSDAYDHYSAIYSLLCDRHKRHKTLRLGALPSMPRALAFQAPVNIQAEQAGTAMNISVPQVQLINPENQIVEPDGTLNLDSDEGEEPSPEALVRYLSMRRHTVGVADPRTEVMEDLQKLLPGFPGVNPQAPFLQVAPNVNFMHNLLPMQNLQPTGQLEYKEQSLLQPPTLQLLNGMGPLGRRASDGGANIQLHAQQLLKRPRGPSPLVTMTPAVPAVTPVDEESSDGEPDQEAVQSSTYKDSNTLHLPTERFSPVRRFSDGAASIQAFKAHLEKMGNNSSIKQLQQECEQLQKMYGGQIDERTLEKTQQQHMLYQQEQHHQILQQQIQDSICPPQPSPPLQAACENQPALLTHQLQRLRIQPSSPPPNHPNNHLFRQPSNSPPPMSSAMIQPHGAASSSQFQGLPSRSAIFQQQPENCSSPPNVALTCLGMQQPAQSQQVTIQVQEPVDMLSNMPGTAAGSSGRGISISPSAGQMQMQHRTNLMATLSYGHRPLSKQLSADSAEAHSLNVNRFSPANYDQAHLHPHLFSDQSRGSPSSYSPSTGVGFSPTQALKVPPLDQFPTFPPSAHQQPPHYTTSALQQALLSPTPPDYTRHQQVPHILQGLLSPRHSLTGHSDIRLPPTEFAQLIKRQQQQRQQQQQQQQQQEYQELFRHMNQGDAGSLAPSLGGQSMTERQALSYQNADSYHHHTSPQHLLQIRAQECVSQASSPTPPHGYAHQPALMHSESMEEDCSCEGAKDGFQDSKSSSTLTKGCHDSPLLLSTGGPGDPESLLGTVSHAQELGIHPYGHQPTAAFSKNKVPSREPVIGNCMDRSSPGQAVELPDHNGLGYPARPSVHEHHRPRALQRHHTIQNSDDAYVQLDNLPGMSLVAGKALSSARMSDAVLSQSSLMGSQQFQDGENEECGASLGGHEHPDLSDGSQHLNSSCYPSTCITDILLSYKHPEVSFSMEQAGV
Sequence of UniProt Q9Y5S2 (whole entry, looked up): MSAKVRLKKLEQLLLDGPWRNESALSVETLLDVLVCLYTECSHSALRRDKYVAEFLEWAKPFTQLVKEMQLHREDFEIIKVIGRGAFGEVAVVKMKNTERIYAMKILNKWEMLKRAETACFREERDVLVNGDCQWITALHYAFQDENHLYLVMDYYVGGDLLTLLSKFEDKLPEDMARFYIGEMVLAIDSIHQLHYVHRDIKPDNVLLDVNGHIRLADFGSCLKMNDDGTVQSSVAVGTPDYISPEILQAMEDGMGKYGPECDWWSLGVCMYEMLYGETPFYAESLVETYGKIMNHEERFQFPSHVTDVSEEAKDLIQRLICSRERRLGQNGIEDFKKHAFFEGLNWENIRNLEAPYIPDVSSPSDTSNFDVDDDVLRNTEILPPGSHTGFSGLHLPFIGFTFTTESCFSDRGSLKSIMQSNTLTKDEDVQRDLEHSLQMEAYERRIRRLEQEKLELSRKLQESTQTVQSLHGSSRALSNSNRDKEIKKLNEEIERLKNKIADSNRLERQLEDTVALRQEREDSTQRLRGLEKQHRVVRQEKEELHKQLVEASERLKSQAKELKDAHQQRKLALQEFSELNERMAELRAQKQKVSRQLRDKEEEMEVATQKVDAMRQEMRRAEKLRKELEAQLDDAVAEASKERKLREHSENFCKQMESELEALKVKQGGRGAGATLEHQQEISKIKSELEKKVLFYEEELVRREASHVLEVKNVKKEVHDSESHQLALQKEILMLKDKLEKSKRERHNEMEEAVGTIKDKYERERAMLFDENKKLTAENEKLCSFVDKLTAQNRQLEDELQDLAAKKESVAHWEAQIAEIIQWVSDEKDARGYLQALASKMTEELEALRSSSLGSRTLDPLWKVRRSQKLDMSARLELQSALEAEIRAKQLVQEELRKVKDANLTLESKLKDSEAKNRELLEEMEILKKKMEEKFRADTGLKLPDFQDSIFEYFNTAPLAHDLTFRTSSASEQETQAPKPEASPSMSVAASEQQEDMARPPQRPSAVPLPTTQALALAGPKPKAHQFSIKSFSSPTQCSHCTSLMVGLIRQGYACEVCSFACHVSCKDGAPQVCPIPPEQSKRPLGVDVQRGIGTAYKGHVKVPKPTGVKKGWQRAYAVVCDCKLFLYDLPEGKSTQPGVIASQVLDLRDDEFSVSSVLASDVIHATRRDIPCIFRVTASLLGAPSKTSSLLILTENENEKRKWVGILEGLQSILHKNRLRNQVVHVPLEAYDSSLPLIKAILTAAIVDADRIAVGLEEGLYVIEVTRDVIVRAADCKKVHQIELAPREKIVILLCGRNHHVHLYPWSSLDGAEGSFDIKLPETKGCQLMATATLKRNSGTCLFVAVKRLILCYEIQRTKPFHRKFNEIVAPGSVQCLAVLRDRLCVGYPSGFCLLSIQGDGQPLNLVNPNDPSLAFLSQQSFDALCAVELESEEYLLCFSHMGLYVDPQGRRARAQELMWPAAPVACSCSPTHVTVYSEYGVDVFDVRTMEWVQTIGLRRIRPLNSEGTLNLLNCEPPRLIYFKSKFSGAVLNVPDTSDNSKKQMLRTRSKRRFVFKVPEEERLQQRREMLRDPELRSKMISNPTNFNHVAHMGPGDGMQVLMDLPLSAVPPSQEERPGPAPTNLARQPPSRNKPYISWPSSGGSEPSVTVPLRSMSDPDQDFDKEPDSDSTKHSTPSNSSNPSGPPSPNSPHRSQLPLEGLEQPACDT
Sequence of UniProt P42336 (whole entry, unmodified, looked up): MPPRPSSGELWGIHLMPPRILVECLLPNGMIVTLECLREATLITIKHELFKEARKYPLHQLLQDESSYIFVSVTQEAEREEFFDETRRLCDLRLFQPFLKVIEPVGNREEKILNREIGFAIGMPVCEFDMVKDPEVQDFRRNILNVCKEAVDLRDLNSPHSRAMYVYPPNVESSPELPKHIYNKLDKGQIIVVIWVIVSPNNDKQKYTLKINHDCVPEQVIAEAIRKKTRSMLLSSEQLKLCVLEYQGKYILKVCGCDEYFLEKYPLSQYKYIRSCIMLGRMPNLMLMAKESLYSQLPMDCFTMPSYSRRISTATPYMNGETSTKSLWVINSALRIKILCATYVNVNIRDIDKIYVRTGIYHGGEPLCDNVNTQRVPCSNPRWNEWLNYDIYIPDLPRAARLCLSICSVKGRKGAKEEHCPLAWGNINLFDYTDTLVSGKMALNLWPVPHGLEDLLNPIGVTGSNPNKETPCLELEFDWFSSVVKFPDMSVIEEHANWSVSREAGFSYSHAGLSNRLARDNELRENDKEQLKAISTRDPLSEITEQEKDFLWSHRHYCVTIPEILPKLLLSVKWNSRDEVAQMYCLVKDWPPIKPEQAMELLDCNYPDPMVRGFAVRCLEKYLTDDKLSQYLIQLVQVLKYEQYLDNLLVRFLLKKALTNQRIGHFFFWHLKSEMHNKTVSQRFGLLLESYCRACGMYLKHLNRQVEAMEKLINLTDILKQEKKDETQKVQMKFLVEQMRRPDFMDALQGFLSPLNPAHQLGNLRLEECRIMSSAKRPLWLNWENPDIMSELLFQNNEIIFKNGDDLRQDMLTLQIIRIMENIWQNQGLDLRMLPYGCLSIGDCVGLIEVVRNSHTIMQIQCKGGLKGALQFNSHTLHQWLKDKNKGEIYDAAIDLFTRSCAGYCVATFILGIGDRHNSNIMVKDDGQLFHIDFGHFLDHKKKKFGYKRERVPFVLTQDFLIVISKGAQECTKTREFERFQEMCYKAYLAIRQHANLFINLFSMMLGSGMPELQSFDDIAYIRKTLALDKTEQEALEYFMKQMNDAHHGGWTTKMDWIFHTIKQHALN

Study 1
Substitution: E131W
Target: ABI1, truncated, D143A, DHFR fusion (Arabidopsis thaliana)
Technique: DHFR PCA, deep sequencing
Matrix: yeast
Notes: methotrexate growth selection, single substitutions
Reference: wild-type fitted maximum
Direction: higher = stronger binding
Starting sequence: PYL1, truncated, DHFR fusion (Arabidopsis thaliana); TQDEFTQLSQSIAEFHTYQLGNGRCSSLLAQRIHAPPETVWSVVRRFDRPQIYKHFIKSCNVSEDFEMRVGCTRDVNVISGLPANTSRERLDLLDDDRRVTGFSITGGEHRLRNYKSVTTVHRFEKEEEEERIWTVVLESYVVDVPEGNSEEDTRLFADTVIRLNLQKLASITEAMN
For added: (+)-ABA 0.39 µM: “relative binding score” read 21.9%.
It gave 23.4% for “relative binding score” (added: (+)-ABA 1.4 µM).
It gave 87.4% for “relative binding score” (added: (+)-ABA 710 µM).
added: (+)-ABA 0 µM — “relative binding score”: 22.2%.
For added: (+)-ABA 4.8 µM: “relative binding score” read 39.3%.
added: (+)-ABA 2500 µM — “relative binding score”: 88.9%.

Study 2
SMILES: CCCOc1ccc([C@@H]2[C@@H](C(=O)O)[C@H](c3ccc4c(c3)OCO4)CN2CC(=O)Nc2c(CC)cccc2CC)cc1
Observed: cell-free assay
Technique: competition with immobilised ligand
Concentration: 1 µM
It gave 81% for remaining binding (PIK3CA (Homo sapiens, UniProt P42336, E542K)).
For FLT3 (Homo sapiens, UniProt P36888, D835H): remaining binding read 100%.
The remaining binding was 97% (CDC42BPB (Homo sapiens, UniProt Q9Y5S2)).
It gave 89% for remaining binding (SIK3 (Homo sapiens, UniProt Q9Y2K2)).

Study 3
Target: Ras GTPase-activating protein-binding protein 1, C-terminal RGG region (G3BP1, Homo sapiens, UniProt Q13283)
Sequence of UniProt Q13283 (whole entry, looked up): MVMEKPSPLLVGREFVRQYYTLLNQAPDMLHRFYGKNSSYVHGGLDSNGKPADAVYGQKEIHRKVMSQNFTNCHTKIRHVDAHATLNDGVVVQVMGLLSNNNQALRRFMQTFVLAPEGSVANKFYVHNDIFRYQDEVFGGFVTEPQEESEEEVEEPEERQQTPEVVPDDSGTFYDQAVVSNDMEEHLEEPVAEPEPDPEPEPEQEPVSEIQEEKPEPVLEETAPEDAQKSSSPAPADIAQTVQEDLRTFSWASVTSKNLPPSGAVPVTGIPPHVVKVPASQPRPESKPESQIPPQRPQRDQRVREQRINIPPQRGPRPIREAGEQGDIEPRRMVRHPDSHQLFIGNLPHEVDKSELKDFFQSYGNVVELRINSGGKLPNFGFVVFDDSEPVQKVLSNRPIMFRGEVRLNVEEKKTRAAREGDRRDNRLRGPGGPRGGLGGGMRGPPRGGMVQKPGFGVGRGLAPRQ
Technique: RNA Bind-n-Seq
Molecule type: RNA
Matrix: in vitro
Concentration: 1 µM
Notes: whole 134-nt RNA, ends assumed
Added: 150 mM KCl
Reference: input library
Direction: higher = stronger binding
Constant ends, left off below: GGGAGUUCUACAGUCCGACGAUC … UGGAAUUCUCGGGUGUCAAGG
`CCUGUGCUACACAUCGUAUGUACCGAAUCGGGGAAAGGGGAAAAAAAGGGGAAAAAGGGGAAAGUAUUAUGUUACGCCGUUCGGAUCUGC` has a log2 enrichment of 0.308.
`UCAAGUCCUGUGCUACACAUCGUAUGUACCGAAUCGGCCCGGCCCGGGGCCCGGGAAAGUAUUAUGUUACGCCGUUCGGAUCUGCACUUC` gave a log2 enrichment of -1.38.
`CCUGUGCUACACAUCGUAUGUACCGAAUCGGGGCCCCCCGGGCCCCCCGGGCCCCCCGGGAAAGUAUUAUGUUACGCCGUUCGGAUCUGC` has a log2 enrichment of -1.79.
`UGUGGCCGCAGGACGAGUACAUCGUGGAGUACUCACUAGAGUAUGGCUUCCUUCGCCUGUCGCAGGCCACCCGCCAGCGCCUGAGCAUCC` has a log2 enrichment of 0.344.
`AAUGCCCACAAGGUCCCUCCCCCAUGGCUGAUUGCCAUGCAGCGAUAUGGACCACCCCCAUCGUAUCCCAACCUGAAAAUCCCUGGGCUG` gave a log2 enrichment of -0.462.
With `CACAGACAACACGCACCCACACAGACACAGAGGGAGGGGGUUGGGAUGGGGACAGGGUGCACAGCAGGGCGGGGUAGGACCCCAGCCCCU` the log2 enrichment was -0.0803.
`CCUGUGCUACACAUCGUAUGUACCGAAUCGGCCCCCCGGGCCCCCCGGGGCCCCCCGGGGAAAGUAUUAUGUUACGCCGUUCGGAUCUGC` gave a log2 enrichment of -2.33.
`AAGUCCUGUGCUACACAUCGUAUGUACCGAAUCGGGCCCCGGGCCCCGGCCCCGGGAAAGUAUUAUGUUACGCCGUUCGGAUCUGCACUU` has a log2 enrichment of -2.38.

Single results of other studies
`CCOC(=O)[C@@H]1CSCC(=O)N[C@@H](CC)C(=O)N(C)[C@@H](C)C(=O)N[C@H](CC(C)C)C(=O)N2CCC[C@H]2C(=O)N(CC)CC(=O)N[C@H](CC(C)C)C(=O)N(C)[C@H](C)C(=O)N[C@@H](CC(C)C)C(=O)N1C` gave a logD of 1.25 (hydrocarbon/water).

For quick reference, copied from above (study 1):
For added: (+)-ABA 0.39 µM: “relative binding score” read 21.9%.
